{"data": "Experimental data from different studies", "note": "Several values in a cell are separate wells, animals, samples, runs or records. ± gives the spread as reported."}
{"Structure (SMILES)": "CC(C)OCCOCc1ccc(OCC(O)CN(N=O)C(C)C)cc1 (stereo not drawn)", "tested on": "Salmonella typhimurium", "assay": "Ames test", "test system": "TA98", "conditions": "5 µg/plate, without metabolic activation", "how to read": "relative to: solvent control", "endpoint": "revertant fold increase", "value": "0.9 fold"}
{"Structure (SMILES)": "COC1CN([C@H]2CC[C@H]([C@@]3(C)Oc4c(Cl)cc(C(=O)NCc5c(SC)cc(C)[nH]c5=O)c(C)c4O3)CC2)C1", "assay": "RNA-seq, measured: MTERF2", "test system": "human, whole blood", "conditions": "dose not given, 24 h", "how to read": "relative to: pretreatment baseline", "endpoint": "log2 fold change", "value": 1.18}
{"Structure (SMILES)": "Nc1nc2cc(C(=O)c3ccc(F)cc3)ccc2[nH]1", "tested on": "Escherichia coli", "assay": "Ames preincubation test", "test system": "WP2 uvrA", "conditions": "39.0 µg/plate, without S9", "endpoint": "revertants", "value": "41 revertants/plate"}
{"Structure (SMILES)": "Cc1ncsc1-c1ccc(C(C)NC(=O)C2CC(O)CN2C(=O)C(NC(=O)CCCCCCCCCCN2CCCC(Nc3ncc(Cl)c(Nc4ccccc4S(=O)(=O)C(C)C)n3)C2)C(C)(C)C)cc1 (stereo not drawn)", "tested on": "22Rv1", "assay": "RNA-seq, measured: PLCH1 mRNA", "conditions": "concentration not given", "how to read": "relative to: DMSO", "endpoint": "log2 fold change", "value": -2.06}
{"Structure (SMILES)": "COC(=O)Nc1nc2cc(C(O)c3ccc(F)cc3)ccc2[nH]1 (stereo not drawn)", "tested on": "Escherichia coli", "assay": "Ames preincubation test", "test system": "WP2 uvrA", "conditions": "218.8 µg/plate, without S9", "endpoint": "revertants", "value": "41.3 revertants/plate"}
{"Structure (SMILES)": "CC(C)(C)NCC(SS(=O)(=O)O)c1ccccc1 (stereo not drawn)", "tested on": "Schistosoma mansoni", "assay": "perfusion day 44", "test system": "infected Swiss Webster mice", "conditions": "600 mg/kg single dose, dosed day 7 post-infection", "endpoint": "body weight", "value": "33.7 g and 30 g and 28 g and 27 g and 31.2 g"}
{"Structure (SMILES)": "Cn1nc(CCCC(=O)O)c(=O)c2c(=O)[nH]c(N)nc21", "tested on": "Escherichia coli", "assay": "LC-MS/MS", "test system": "BW25113", "conditions": "100 µM, 10 min, 37 °C", "endpoint": "intracellular accumulation", "value": "3.18 µM"}
{"Structure (SMILES)": "CCN(CC)CC#CCNc1ccnc2cc(Cl)ccc12", "tested on": "Salmonella typhimurium", "assay": "mini-Ames test", "test system": "TA98", "conditions": "250.0 µg/well, without S9", "endpoint": "revertants", "value": "12 revertants/well and 10 revertants/well"}
{"Structure (SMILES)": "CC(CC(=O)O)c1n[nH]c2nc(N)[nH]c(=O)c2c1=O (stereo not drawn)", "tested on": "Escherichia coli", "assay": "LC-MS/MS", "test system": "BW25113", "conditions": "100 µM, 10 min, 37 °C", "endpoint": "intracellular accumulation", "value": "3.02 ± 0.2 µM"}
{"Structure (SMILES)": "Nc1ncc(-c2cc(-c3cnn(CC(F)(F)F)c3)ncc2F)nc1C(=O)NC1CNCC(F)C1 (stereo not drawn)", "tested on": "DYRK1B", "assay": "KINOMEscan", "conditions": "1 µM", "how to read": "relative to: DMSO control", "endpoint": "remaining binding", "value": "56%"}
{"Structure (SMILES)": "O=C1C2CC3CC1CC(C(=O)N1CCN(c4ccc([N+](=O)[O-])c5ncccc45)CC1)(C3)C2", "tested on": "Escherichia coli", "assay": "Ames test", "test system": "WP2 uvrA pKM101", "conditions": "0.13 µg/well, with S9 activation", "endpoint": "revertant colony count", "value": "27 colonies/well"}
{"Structure (SMILES)": "CNS(=O)(=O)Nc1nccc(Cc2c(C)c3ccc(Oc4ncccc4F)cc3oc2=O)c1F", "tested on": "BV-173", "assay": "cell viability", "conditions": "7 days", "endpoint": "IC50", "value": "710 nM"}
{"Structure (SMILES)": "O=C1NC2(CC2)COc2ncc(F)cc2[C@H]2COCCN2c2ccn3ncc1c3n2", "tested on": "Salmonella typhimurium", "assay": "Ames test", "test system": "TA102", "conditions": "150 µg/plate, 48 h, together with: rat liver S9", "endpoint": "revertant colonies", "value": "396 ± 12 revertants/plate"}
{"Structure (SMILES)": "CC(CC(=O)O)c1nn(C)c2nc(N)[nH]c(=O)c2c1=O (stereo not drawn)", "tested on": "Escherichia coli", "assay": "LC-MS/MS", "test system": "BW25113", "conditions": "100 µM, 10 min, 37 °C", "endpoint": "intracellular accumulation", "value": "4.42 ± 0.5 µM"}
{"Structure (SMILES)": "COc1ccccc1C(=O)Oc1cccccc1=O", "tested on": "HepDES19", "assay": "cell growth or viability, MTS", "conditions": "72 h", "endpoint": "CC50", "value": "> 100000 nM"}
{"note": "Repeated from above:"}
{"Structure (SMILES)": "CCN(CC)CC#CCNc1ccnc2cc(Cl)ccc12", "tested on": "Salmonella typhimurium", "assay": "mini-Ames test", "test system": "TA98", "conditions": "250.0 µg/well, without S9", "endpoint": "revertants", "value": "12 revertants/well and 10 revertants/well"}
